Results from different studies.
Each numbered part is a random draw from the data of one study; scales do not carry over between parts. Several values in a cell are separate wells, animals, samples, runs or records.
Sequence of UniProt Q99558 (whole entry, looked up): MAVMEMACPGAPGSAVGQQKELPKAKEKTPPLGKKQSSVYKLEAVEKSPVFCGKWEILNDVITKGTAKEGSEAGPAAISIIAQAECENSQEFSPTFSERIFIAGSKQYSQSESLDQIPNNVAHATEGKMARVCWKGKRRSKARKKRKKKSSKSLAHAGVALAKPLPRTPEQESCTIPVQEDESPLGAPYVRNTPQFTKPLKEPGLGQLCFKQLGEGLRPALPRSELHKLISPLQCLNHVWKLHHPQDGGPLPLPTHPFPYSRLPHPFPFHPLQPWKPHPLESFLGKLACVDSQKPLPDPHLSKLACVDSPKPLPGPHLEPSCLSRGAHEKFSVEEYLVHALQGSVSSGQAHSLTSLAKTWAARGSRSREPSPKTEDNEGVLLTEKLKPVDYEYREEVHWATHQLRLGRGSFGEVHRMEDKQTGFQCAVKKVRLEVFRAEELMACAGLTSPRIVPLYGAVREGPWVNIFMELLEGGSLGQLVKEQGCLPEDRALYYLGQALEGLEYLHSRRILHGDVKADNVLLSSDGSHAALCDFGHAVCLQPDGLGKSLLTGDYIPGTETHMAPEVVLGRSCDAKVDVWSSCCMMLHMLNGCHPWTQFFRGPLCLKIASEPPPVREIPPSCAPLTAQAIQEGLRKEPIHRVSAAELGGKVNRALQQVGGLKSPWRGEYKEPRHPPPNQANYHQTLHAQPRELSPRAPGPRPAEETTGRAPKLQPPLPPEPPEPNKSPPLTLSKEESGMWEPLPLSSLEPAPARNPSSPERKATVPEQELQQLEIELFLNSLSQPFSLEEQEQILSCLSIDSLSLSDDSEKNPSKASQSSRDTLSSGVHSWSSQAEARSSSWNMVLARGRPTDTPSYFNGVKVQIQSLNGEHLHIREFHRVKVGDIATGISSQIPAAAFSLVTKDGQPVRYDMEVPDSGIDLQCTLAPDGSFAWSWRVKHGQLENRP
Sequence of UniProt Q12866 (whole entry, looked up): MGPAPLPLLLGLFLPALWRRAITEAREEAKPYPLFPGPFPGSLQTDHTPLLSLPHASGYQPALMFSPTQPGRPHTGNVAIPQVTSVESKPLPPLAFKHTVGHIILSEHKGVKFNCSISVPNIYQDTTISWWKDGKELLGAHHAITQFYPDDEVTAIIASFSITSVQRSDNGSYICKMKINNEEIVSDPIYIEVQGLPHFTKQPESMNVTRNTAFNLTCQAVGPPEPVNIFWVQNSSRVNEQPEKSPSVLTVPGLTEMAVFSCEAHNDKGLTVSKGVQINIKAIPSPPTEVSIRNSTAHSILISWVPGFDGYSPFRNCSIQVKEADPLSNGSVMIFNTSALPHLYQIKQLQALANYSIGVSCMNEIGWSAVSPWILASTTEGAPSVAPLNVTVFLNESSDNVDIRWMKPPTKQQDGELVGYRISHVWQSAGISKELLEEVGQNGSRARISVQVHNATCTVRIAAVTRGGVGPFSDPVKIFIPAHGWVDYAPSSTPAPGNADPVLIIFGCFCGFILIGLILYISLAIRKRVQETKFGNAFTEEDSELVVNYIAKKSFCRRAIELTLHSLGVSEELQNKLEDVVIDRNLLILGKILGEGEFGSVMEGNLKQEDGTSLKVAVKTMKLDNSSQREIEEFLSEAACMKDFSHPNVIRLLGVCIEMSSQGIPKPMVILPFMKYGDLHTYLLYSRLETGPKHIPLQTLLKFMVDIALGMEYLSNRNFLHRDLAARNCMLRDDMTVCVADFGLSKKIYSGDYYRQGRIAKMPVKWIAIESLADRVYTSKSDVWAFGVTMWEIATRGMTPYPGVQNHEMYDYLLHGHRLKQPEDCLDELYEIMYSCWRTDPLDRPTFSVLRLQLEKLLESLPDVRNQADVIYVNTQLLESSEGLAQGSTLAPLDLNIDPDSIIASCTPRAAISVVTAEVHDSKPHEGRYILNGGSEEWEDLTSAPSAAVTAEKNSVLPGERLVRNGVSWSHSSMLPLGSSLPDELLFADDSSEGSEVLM
Sequence of UniProt P06239 (whole entry, looked up): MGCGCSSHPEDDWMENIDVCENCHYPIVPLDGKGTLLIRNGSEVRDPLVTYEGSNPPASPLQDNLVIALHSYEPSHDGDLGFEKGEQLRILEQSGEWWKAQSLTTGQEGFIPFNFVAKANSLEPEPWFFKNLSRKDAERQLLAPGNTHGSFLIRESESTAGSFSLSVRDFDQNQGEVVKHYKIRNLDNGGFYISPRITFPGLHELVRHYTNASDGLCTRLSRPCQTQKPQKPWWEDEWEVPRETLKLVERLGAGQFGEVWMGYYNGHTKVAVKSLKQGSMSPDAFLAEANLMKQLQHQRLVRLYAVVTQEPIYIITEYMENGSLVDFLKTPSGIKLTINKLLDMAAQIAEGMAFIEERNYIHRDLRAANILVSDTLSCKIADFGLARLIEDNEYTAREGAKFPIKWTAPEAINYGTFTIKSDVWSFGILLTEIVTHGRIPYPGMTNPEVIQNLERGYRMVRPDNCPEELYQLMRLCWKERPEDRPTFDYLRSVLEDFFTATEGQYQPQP
Sequence of UniProt O00329 (whole entry, looked up): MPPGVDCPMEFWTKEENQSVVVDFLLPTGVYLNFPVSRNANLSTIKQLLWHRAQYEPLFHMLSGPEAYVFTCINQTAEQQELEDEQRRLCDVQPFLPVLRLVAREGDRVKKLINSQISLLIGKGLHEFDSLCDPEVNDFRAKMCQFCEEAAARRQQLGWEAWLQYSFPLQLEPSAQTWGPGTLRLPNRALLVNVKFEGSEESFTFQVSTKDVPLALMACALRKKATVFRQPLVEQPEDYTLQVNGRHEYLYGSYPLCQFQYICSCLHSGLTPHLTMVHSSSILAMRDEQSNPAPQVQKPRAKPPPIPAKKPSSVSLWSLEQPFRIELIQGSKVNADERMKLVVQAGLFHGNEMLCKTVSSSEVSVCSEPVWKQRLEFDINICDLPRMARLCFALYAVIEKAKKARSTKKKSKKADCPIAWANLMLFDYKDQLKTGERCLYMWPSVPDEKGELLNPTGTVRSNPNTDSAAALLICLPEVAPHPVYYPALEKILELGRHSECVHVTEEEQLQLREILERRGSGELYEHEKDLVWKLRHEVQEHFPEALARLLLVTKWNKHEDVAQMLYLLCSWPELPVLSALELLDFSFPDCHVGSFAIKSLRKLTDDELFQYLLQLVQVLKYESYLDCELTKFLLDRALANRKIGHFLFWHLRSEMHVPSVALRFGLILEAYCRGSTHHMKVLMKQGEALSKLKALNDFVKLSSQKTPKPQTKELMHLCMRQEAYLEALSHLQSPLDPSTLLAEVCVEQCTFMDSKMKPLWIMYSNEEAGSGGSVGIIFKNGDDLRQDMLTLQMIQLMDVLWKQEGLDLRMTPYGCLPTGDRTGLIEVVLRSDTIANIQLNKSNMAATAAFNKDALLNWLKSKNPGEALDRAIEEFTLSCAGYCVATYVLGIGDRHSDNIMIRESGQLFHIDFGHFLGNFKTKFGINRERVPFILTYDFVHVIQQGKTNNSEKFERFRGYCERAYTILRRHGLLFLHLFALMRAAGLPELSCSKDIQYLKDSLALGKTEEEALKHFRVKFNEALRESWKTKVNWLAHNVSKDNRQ

Set 1
Structure (SMILES): CS(=O)(=O)NCC[C@H](NC(=O)c1cncc2c1cnn2-c1ccc(F)cc1)c1ccnc(S(C)(=O)=O)c1
Observed: cell-free assay
Method: competition with immobilised ligand
Concentration: 1 µM
Endpoint: remaining binding
STK38 (Homo sapiens, UniProt Q15208): 100%
MAP4K5 (Homo sapiens, UniProt Q9Y4K4): 83%
STK3 (Homo sapiens, UniProt Q13188): 100%
PIKFYVE (Homo sapiens, UniProt Q9Y2I7): 76%
PIK3CD (Homo sapiens, UniProt O00329): 100%
MAP3K14 (Homo sapiens, UniProt Q99558): 100%

Set 2
SMILES: Cn1cc(/C=C2\C(=O)Nc3ccc(S(N)(=O)=O)cc32)c2ccccc21
Observed: enzyme activity
Mode: inhibitor
Concentration: 0.5 µM
Baseline: control
Endpoint: remaining activity
EPHA3 (Homo sapiens, UniProt P29320): 80.9%
GRK7 (Homo sapiens, UniProt Q8WTQ7): 20.9%
ULK2 (Homo sapiens, UniProt Q8IYT8): 72.3%
TBK1 (Homo sapiens, UniProt Q9UHD2): 21.6%
LCK (Homo sapiens, UniProt P06239): 57.6%
CSNK1G3 (Homo sapiens, UniProt Q9Y6M4): 109%
ULK3 (Homo sapiens, UniProt Q6PHR2): 15.8%
JAK3 (Homo sapiens, UniProt P52333): 43.7%
NEK1 (Homo sapiens, UniProt Q96PY6): 68.5%
MERTK (Homo sapiens, UniProt Q12866): 45.9%
CSNK1G2 (Homo sapiens, UniProt P78368): 100%
FRK (Homo sapiens, UniProt P42685): 97.1%
MAPKAPK2 (Homo sapiens, UniProt P49137): 101%
MAP3K14 (Homo sapiens, UniProt Q99558): 123%

Set 3
Organism: Sarcocystis neurona
Observed: parasite growth
Concentration: 10 µM
Time: 96 h
Setting: secondary screen
Endpoint: inhibition
CN(C)CCC=C1c2ccccc2COc2ccccc21: -21.2%
Cn1cc[nH]c1=S: -16.4%
O=C(C1CCCCC1)N1CC(=O)N2CCc3ccccc3C2C1 (stereo not shown): -28.1%
CCCCNC(=O)NS(=O)(=O)c1ccc(C)cc1: -23.8%
Nc1nc(=O)c2nc(CNc3ccc(C(=O)N[C@@H](CCC(=O)O)C(=O)O)cc3)cnc2[nH]1: -7.2%
CN(C)c1nc(N(C)C)nc(N(C)C)n1: -13.8%
CCN1CCN(c2cc3c(cc2F)c(=O)c(C(=O)O)cn3C2CC2)CC1: -18.4%
CC(C(=O)O)c1ccc(-c2ccccc2)c(F)c1 (stereo not shown): -18.5%
C#C[C@]1(OC(C)=O)CC[C@H]2[C@@H]3CCC4=CC(=O)CC[C@@H]4[C@H]3CC[C@@]21C: -14.9%

Other studies, line by line
Target: DDB1- and CUL4-associated factor 1 (DCAF1, Homo sapiens, UniProt Q9Y4B6)
Sequence of UniProt Q9Y4B6 (whole entry, looked up): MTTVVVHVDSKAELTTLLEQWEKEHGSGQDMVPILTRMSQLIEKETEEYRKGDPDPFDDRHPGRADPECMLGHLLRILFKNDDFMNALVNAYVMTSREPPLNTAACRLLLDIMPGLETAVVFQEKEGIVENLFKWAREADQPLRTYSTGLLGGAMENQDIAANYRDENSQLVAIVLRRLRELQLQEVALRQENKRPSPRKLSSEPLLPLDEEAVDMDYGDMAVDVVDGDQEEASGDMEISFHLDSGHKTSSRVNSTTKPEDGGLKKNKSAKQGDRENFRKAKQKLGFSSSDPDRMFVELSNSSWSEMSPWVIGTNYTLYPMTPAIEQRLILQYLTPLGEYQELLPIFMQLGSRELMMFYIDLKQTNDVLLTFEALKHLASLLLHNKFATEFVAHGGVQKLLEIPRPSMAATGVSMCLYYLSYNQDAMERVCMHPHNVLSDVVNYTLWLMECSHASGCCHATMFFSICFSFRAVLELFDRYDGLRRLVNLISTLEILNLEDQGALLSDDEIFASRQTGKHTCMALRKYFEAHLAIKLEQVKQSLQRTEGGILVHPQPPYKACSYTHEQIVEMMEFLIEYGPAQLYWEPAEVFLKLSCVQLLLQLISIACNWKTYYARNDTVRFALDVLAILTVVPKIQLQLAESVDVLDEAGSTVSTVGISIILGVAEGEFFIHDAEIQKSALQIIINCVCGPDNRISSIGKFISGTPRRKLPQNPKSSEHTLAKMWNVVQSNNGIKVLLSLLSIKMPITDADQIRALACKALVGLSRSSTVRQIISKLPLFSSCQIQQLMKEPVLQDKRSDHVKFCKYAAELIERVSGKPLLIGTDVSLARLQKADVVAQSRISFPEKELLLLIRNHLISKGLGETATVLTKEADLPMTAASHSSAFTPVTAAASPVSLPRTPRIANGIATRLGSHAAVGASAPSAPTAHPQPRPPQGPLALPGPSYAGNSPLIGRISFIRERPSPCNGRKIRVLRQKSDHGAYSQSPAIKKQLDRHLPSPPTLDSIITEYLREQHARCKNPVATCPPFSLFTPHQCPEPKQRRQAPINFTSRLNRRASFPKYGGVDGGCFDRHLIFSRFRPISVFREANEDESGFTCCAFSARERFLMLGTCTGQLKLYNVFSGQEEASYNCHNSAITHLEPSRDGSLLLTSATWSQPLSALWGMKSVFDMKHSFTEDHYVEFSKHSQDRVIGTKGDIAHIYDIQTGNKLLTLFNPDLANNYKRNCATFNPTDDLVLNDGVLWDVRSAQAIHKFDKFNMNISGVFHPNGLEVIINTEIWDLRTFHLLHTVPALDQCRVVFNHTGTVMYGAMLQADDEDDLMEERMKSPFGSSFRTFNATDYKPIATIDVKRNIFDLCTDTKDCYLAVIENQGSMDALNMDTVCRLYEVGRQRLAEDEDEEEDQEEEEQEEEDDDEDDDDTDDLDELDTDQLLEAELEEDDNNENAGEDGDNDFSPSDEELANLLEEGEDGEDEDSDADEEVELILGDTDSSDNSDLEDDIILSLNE
Method: differential scanning fluorimetry
Concentration: concentration not given
Setting: unit not given
Baseline: DCAF1 alone
C[C@@H]1CN(c2ccc(-c3cc(C(=O)NCCOCCOCCOCCOCCOCCOCCNC(=O)/C=C/c4[nH]cc(C(=O)N[C@@H](CC(N)=O)c5ccc(F)c(Cl)c5)c4-c4ccc(Cl)cc4F)ccc3F)cc2NC(=O)c2ccc(F)cc2C(F)(F)F)C[C@H](C)N1C  ΔTm: 5.3 and 5.52 and 5.48 and 5.34 and 5.39 and 5.07 and 5.13
C[C@@H]1CN(c2ccc(-c3cc(C(=O)NCCOCCOCCOCCOCCNC(=O)/C=C/c4[nH]cc(C(=O)N[C@@H](CC(N)=O)c5ccc(F)c(Cl)c5)c4-c4ccc(Cl)cc4F)ccc3F)cc2NC(=O)c2c[nH]c(=O)cc2C(F)(F)F)C[C@H](C)N1C  ΔTm: 7.56 and 7.47 and 7.37 and 7.42 and 7.29 and 7.15 and 8.36 and 7.48

A few entries again (set 2):
LCK (Homo sapiens, UniProt P06239): 57.6%
CSNK1G3 (Homo sapiens, UniProt Q9Y6M4): 109%
ULK3 (Homo sapiens, UniProt Q6PHR2): 15.8%
